Measured values gathered from unrelated publications.
Parts stem from different laboratories: compare values within a part only. “And” joins repeats or separate records; there may be more than shown.
Chain of UniProt Q6XUX3 (whole entry, looked up): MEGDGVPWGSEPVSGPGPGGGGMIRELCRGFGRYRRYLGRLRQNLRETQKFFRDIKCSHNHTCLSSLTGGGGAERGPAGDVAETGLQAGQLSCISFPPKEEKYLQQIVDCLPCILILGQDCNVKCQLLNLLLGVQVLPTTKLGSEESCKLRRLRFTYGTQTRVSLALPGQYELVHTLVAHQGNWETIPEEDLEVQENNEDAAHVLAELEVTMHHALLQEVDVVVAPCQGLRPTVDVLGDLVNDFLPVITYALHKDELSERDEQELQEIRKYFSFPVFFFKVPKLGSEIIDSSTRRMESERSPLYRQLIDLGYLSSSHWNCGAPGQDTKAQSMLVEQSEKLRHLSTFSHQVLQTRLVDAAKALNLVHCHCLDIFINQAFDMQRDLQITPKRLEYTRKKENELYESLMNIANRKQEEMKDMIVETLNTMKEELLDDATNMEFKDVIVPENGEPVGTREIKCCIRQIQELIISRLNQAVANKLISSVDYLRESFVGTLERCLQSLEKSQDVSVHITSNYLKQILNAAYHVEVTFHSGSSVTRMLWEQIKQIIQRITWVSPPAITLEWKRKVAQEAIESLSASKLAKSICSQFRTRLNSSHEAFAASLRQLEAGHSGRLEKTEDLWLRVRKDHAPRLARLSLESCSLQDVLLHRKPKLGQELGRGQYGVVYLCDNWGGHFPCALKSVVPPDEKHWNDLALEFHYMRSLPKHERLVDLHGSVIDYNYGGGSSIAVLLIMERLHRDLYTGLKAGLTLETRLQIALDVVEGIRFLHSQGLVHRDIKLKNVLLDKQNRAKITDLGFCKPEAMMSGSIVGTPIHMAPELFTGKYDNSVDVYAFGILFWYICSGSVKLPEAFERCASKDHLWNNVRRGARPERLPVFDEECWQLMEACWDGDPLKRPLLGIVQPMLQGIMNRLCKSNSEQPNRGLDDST
Chain of UniProt Q9HBY8 (whole entry, looked up): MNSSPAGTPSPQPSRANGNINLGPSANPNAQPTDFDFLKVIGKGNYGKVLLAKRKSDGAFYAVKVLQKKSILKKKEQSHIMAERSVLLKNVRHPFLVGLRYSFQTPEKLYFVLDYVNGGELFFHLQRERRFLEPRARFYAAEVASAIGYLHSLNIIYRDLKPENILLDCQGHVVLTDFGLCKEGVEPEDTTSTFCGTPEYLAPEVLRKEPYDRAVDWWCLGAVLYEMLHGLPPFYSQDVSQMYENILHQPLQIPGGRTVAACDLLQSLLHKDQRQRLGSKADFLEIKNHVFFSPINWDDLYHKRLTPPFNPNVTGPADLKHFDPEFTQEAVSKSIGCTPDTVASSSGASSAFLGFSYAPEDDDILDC
Chain of UniProt P11802 (whole entry, looked up): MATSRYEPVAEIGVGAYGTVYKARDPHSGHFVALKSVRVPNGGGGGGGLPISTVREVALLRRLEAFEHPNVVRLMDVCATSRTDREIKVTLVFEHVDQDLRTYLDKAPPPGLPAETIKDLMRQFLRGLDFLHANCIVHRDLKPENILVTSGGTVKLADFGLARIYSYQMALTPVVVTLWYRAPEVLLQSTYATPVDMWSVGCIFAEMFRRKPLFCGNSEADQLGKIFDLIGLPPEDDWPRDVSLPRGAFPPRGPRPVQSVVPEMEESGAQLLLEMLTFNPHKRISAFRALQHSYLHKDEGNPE
Chain of UniProt Q8N568 (whole entry, looked up): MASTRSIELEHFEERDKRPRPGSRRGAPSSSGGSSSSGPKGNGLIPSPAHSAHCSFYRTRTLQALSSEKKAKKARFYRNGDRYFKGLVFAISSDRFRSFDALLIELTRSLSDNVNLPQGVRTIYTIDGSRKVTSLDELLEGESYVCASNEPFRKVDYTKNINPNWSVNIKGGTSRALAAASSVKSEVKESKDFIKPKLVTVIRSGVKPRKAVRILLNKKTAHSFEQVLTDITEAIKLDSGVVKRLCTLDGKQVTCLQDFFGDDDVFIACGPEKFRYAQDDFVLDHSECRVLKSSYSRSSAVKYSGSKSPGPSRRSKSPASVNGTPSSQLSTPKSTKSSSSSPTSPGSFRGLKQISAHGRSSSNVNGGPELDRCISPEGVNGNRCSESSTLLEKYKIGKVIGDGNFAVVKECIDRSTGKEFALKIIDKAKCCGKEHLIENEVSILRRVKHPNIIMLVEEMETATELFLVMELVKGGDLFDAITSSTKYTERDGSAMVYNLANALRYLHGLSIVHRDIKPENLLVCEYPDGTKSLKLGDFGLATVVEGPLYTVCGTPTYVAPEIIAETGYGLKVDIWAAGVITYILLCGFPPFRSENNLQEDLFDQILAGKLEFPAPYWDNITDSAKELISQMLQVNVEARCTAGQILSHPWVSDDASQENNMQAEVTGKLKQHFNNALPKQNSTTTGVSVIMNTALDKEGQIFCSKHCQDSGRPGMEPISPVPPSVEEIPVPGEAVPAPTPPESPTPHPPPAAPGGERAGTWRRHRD
Chain of UniProt Q8IW41 (whole entry, looked up): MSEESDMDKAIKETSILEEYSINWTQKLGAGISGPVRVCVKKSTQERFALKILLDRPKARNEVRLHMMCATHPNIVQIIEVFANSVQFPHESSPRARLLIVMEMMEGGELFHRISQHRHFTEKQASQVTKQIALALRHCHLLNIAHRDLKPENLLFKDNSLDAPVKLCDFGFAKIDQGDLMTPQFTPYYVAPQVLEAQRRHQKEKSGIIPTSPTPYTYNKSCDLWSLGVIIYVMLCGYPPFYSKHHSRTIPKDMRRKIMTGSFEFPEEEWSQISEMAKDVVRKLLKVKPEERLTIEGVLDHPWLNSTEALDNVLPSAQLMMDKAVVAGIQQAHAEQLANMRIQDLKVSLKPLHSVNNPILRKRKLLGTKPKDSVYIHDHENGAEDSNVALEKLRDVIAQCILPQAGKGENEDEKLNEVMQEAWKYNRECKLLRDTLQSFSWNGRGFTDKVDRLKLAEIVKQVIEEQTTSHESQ

Series 1
Host: human
Sample: microsomes or S9
Tested at: 2 µM
Time: 0.5 h
Endpoint: remaining compound
O=C(CN1CCOCC1)N1CCC(c2nc(-c3ccccc3)no2)C1 (centres unmarked): 99.1%
O=c1ccc(-c2noc(Cc3c(F)cccc3Cl)n2)c[nH]1: 71.3%
COc1ccccc1CNC(=O)C1(C)Cc2ccccc2C(=O)N1c1ccc(Cl)cc1 (centres unmarked): 1.86%
Cc1c(Cl)c(C(=O)NN2CCOCC2)nn1C: 90%

Series 2
Organism: Sarcocystis neurona
Read-out: parasite growth
Tested at: 10 µM
Time: 96 h
Setting: second screen
Baseline: untreated
Endpoint: log2 fold change
Cc1cccc(Nc2ccccc2C(=O)O)c1C: 0.19
Cc1ccc(-c2cc(C(F)(F)F)nn2-c2ccc(S(N)(=O)=O)cc2)cc1: 0.65
C[C@]12C[C@H](O)[C@H]3[C@@H](CCC4=CC(=O)CC[C@@]43C)[C@@H]1CC[C@@H]2C(=O)CO: 0.08
Cc1cn([C@H]2C[C@H](N=[N+]=[N-])[C@@H](CO)O2)c(=O)[nH]c1=O: 0.35
Cc1[nH]cnc1CN1CCc2c(c3ccccc3n2C)C1=O: 0.62

Series 3
SMILES: CN([C@@H]1CCc2c(CC(=O)O)c3ccccc3n2C1)S(=O)(=O)c1ccc(F)cc1
Read-out: cell-free assay
Technique: competition with immobilised ligand
Tested at: 1 µM
Endpoint: remaining binding
DSTYK (Homo sapiens, UniProt Q6XUX3): 82%
SGK2 (Homo sapiens, UniProt Q9HBY8): 100%
MAPKAPK5 (Homo sapiens, UniProt Q8IW41): 94%
DCLK2 (Homo sapiens, UniProt Q8N568): 100%
Cyclin-dependent kinase 4, with cyclin D3 (CDK4, Homo sapiens, UniProt P11802): 100%

Series 4
Cell line: HuT78
Tested at: 2 µM
Time: 48 h
Baseline: untreated
Endpoint: viability
CCOc1cc(N2CCC(O)CC2)ccc1Nc1ncc2c(n1)N(C)c1ccccc1C(=O)N2C: 130%
Oc1ccc2ccccc2c1SSc1c(O)ccc2ccccc12: 102%
COc1cc2ncnc(Oc3ccc(CC(=O)Nc4cnn(C(C)C)c4)cc3)c2cc1OC: 123%
N[C@@H]1CCCN(c2c(/C=C3\SC(=O)NC3=O)cccc2-c2ccccc2)C1: 88.4%

Series 5
Target: Calcium/calmodulin-dependent protein kinase type IV (CAMK4, Homo sapiens, UniProt Q16566)
Chain of UniProt Q16566 (whole entry, looked up): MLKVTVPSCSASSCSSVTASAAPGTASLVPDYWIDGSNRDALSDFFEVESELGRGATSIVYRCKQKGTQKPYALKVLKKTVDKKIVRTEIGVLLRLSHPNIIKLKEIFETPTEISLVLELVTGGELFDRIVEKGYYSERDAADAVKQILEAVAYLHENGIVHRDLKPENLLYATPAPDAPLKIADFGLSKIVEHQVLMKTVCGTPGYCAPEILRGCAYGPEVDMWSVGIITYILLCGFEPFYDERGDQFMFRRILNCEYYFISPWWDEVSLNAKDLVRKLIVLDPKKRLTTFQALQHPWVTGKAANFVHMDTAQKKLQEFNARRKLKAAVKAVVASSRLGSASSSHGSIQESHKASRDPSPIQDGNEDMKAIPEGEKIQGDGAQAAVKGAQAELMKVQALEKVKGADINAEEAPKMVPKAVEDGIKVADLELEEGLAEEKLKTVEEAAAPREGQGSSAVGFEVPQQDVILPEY
Read-out: enzyme activity
Action: inhibitor
Tested at: 0.5 µM
Baseline: control
Endpoint: remaining activity
Cc1cccc(-c2[nH]c(C(C)(C)C)nc2-c2ccc3c(c2)OCO3)n1: 100%
C#Cc1cccc(Nc2ncnc3cc(OCCOC)c(OCCOC)cc23)c1: 94.8%
COc1ccc(OC)c2c(=S)c3ccccc3[nH]c12: 101%
CC(C)[C@H](CO)Nc1nc(Nc2cc(N)cc(Cl)c2)c2ncn(C(C)C)c2n1: 97.4%
Cc1nc(-c2ccccc2)c(-c2ccncc2)o1: 97.2%
O=C1NC(=O)C(c2cn(CCCn3ccnc3)c3ccccc23)=C1Nc1ccccc1: 103%
Cn1c2ccccc2c2c3c(c4c5ccccc5n(CCC#N)c4c21)CNC3=O: 88.1%
Oc1ccc(-c2nc(-c3ccncc3)c(-c3ccc(F)cc3)[nH]2)cc1: 102%
CNC(=O)c1cc(Oc2ccc(NC(=O)Nc3ccc(Cl)c(C(F)(F)F)c3)cc2)ccn1: 107%
O=C(Nc1cccc(Nc2cc(Nc3cccc(C(F)(F)F)c3)ncn2)c1)C1CC1: 98.5%
O=S(=O)(c1cccc2cnccc12)N1CCCNCC1: 92.9%
NCCNc1ncc(C(N)=O)c(Nc2cccc(C(F)(F)F)c2)n1: 94.2%
COc1ccc(CNC(=O)Nc2ncc([N+](=O)[O-])s2)cc1: 96.7%
O=C1NC(=O)C(c2cn(CCCO)c3ncccc23)=C1c1cnccn1: 95.6%
Nc1ncnc2n[nH]c(Nc3ccc(F)cc3)c12: 103%
Nc1[nH]nc2nc3ccccc3nc12: 104%
CO[C@H]1C[C@@H]2CC[C@@H](C)[C@@](O)(O2)C(=O)C(=O)N2CCCC[C@H]2C(=O)O[C@H]([C@H](C)C[C@@H]2CC[C@@H](O)[C@H](OC)C2)CC(=O)[C@H](C)/C=C(\C)[C@@H](O)[C@@H](OC)C(=O)[C@H](C)C[C@H](C)/C=C/C=C/C=C/1C: 99.1%
COc1cc2ncnc(Nc3ccc(Oc4ccccc4)cc3)c2cc1OC: 97.8%
COc1cc2ncnc(Nc3ccc(F)c(Cl)c3)c2cc1OCCCN1CCOCC1: 93.3%
OCC(O)CCON=C1C(c2c(O)[nH]c3ccccc23)=Nc2ccccc21 (centres unmarked): 93.6%
CCOC(=O)c1c(C)[nH]c(/C=C2\C(=O)Nc3ccccc32)c1C: 97.7%
COc1cc2nccc(Oc3ccc(NC(=S)NC(=O)c4ccccc4C)cc3)c2cc1OC: 103%

Series 6
SMILES: C[C@@H]1[C@H](O)[C@@H](C)/C=C/C=C/C=C/C=C/C=C/C=C/C=C/[C@H](O[C@@H]2O[C@H](C)[C@@H](O)[C@H](N)[C@@H]2O)C[C@@H]2O[C@](O)(C[C@@H](O)C[C@@H](O)[C@H](O)CC[C@@H](O)C[C@@H](O)CC(=O)O[C@H]1C)C[C@H](O)[C@H]2C(=O)O
Cell line: THP-1
Endpoint: inhibition
10 µM, cytotoxicity: 101%
host cell growth; 0.04 µM: -0.12% and -0.29% and -4.9% and -1.51% and -1.33% and -5.73%
host cell growth; 0.1 µM: -1.7% and -1.33% and 1.16% and -0.55% and 0.28% and -1.73%

Mixed results
c1ccc2c(-c3nn4c(-c5ccncc5)nnc4s3)c[nH]c2c1
lysosomal acid lipase activity (healthy dermal fibroblasts; 4-MUP hydrolysis; 0.5 µM, with: without ISRIB; baseline: DMSO without ISRIB): 158% and 172% and 167% and 201%
